Assay results collected from several papers.
Lines come from different studies, so protocols differ.
Cell line: BV-2
Technique: Griess

| Compound | assay | conditions | measurement | value |
| --- | --- | --- | --- | --- |
| O=C(O)c1ccc(CO)cc1 | NO release, inhibitor | LPS-stimulated | IC50 | > 20 µM |
| COc1cc(/C=C/C(=O)N2CCC(Cc3ccccc3)CC2)ccc1OC1CCCCC1 | NO release, inhibitor | 10 µM, LPS-stimulated | inhibition | 59.5% |
| COc1cc(/C=C/C(=O)c2ccc(OC)c(OC)c2O)cc(OC)c1OC | NO release, inhibitor | 24 h, LPS-stimulated | IC50 | 1.1 µM |
| COc1cc(O)c2c(=O)c(O)c(-c3ccc(O)c(O)c3)oc2c1 | NO release, inhibitor | LPS-stimulated | IC50 | 26.3 µM |
| COc1ccc2c(c1O)CCc1cc(O)cc(OC)c1-2 | NO release, inhibitor | LPS-stimulated | IC50 | > 20 µM |
| C#CCOc1ccc(/C=C/C(=O)N2CCc3ccccc3C2)cc1OC | NO release, inhibitor | 5 µM, LPS-stimulated | inhibition | 35.1% |
| COc1cc(O)c2c(c1)O[C@H](c1ccc(O)cc1)CC2=O | NO release | 24 h, together with: LPS 10 µg/mL | IC50 | 87.1 µM |
| COc1cc(/C=C/C(=O)NCCc2ccc(O)cc2)ccc1O | NO release, inhibitor | LPS-stimulated | IC50 | > 20 µM |
| COc1cc(/C=C/C(=O)N2CCc3ccccc3C2)ccc1OC1CCCCC1 | NO release, inhibitor | 10 µM, LPS-stimulated | inhibition | 64.1% |
| COc1cc2ccc3cccc(O)c3c2c(OC)c1O | NO release, inhibitor | LPS-stimulated | IC50 | > 20 µM |
| COc1ccc(/C=C/C(=O)N2CCc3ccccc3C2)cc1OC | NO release, inhibitor | 10 µM, LPS-stimulated | inhibition | 62.5% |
| COc1cc(/C=C/C(=O)c2ccccc2O)cc(OC)c1OC | nitric oxide production, item: nitrite | 24 h, together with: LPS 1 µg/mL | IC50 | 2.26 µM |

Excerpt of the above:
| Compound | assay | conditions | measurement | value |
| --- | --- | --- | --- | --- |
| COc1cc(/C=C/C(=O)NCCc2ccc(O)cc2)ccc1O | NO release, inhibitor | LPS-stimulated | IC50 | > 20 µM |
